Measurements gathered from unrelated publications.
Parts stem from different laboratories: compare values within a part only.
Sequence of UniProt Q9H4A3 (whole entry, looked up): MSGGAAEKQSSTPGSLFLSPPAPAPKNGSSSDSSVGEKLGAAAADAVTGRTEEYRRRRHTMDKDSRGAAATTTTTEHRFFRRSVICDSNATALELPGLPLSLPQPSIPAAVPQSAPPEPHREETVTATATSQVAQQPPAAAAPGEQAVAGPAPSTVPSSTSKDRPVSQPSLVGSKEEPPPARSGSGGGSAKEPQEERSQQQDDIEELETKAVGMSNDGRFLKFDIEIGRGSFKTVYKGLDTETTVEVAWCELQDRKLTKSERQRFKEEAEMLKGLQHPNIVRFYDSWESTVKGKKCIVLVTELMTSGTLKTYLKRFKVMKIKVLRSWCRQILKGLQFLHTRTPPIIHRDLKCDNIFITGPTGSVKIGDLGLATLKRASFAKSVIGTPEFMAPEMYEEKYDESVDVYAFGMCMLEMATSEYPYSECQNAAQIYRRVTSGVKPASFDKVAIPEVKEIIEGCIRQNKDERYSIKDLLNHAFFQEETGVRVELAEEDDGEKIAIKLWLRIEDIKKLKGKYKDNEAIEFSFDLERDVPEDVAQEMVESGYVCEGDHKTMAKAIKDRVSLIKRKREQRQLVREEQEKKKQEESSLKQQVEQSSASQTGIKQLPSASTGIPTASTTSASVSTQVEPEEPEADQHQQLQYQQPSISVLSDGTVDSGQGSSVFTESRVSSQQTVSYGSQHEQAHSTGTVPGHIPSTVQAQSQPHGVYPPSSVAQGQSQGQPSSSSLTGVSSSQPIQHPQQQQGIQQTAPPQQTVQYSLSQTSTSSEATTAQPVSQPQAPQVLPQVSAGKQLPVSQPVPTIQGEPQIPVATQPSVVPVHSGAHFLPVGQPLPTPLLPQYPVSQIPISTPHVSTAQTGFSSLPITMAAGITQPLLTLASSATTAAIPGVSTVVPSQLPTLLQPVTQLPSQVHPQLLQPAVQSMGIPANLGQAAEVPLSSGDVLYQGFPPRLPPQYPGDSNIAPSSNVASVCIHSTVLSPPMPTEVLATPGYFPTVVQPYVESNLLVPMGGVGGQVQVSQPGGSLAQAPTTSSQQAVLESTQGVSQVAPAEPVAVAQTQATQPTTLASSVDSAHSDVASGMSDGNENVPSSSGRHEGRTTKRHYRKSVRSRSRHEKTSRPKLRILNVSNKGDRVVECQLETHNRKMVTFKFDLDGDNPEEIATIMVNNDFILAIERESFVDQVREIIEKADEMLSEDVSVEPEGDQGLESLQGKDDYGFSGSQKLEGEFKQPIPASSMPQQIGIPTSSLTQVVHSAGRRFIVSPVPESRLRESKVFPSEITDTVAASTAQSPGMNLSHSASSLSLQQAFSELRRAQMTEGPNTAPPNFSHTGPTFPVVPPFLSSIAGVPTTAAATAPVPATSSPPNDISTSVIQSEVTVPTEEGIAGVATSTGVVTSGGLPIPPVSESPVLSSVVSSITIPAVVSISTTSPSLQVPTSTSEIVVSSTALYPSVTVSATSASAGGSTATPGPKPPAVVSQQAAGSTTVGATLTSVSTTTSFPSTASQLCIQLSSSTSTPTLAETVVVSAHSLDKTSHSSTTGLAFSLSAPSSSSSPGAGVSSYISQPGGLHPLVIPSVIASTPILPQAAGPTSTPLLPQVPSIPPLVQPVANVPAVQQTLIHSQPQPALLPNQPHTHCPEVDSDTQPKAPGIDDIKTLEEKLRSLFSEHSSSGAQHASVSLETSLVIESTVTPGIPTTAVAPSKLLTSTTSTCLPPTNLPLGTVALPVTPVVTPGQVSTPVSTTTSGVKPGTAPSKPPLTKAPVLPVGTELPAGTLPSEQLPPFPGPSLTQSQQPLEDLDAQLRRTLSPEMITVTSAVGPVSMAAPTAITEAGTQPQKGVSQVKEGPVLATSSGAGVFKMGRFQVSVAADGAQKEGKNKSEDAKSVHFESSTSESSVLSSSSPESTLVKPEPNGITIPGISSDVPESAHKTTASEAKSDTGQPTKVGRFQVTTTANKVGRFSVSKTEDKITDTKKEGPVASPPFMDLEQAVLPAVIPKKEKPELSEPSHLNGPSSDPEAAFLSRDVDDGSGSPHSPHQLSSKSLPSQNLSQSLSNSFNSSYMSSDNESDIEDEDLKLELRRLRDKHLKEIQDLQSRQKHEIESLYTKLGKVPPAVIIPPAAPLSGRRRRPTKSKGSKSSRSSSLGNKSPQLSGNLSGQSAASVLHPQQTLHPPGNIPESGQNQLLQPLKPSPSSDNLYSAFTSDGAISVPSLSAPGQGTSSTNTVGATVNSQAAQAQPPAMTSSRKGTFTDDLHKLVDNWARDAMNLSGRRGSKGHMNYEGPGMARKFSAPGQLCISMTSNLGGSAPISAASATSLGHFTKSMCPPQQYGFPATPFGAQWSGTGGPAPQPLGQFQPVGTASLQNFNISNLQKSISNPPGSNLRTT
Sequence of UniProt Q8IWQ3 (whole entry, looked up): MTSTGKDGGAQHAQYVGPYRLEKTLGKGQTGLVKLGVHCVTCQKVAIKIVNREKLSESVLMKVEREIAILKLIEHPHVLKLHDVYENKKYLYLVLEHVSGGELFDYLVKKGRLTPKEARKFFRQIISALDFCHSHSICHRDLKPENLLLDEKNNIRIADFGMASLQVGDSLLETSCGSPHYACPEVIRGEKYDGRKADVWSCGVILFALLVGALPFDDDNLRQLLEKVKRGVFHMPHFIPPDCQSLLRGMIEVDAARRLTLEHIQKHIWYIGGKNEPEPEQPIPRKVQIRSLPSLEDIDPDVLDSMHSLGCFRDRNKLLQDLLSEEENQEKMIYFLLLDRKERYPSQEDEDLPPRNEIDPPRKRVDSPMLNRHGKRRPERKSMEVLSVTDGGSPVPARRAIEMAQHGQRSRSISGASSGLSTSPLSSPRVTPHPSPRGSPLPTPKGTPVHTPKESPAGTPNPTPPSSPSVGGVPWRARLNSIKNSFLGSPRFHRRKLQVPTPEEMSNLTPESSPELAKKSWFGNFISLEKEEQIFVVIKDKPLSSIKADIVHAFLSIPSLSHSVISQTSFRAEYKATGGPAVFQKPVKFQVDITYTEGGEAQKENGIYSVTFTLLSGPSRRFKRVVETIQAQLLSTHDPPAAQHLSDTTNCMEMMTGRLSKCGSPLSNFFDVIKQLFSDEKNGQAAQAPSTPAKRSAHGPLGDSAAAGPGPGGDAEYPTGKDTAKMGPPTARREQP

Study 1 — technique: protein binding microarray; molecule type: double-stranded DNA, one strand shown; medium: in vitro; tested at: not given; relative to: not given; direction: higher = stronger binding; quantity: E-score
Target: Histone acetyltransferase KAT6A, both winged helices, GST fusion (KAT6A, Homo sapiens, UniProt Q92794, residues 1-181)
Setting: 8-mer, flanks averaged, mean of 2 arrays, mostly near background
Construct (chain): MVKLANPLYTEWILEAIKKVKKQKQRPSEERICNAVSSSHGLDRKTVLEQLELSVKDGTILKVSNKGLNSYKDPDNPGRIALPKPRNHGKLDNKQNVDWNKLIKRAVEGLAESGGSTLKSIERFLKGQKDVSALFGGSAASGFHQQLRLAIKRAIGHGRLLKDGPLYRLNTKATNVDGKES
CTGGTCAC: -0.121
GACGGCGC: 0.356
AAGGTTCT: -0.143
CGATGAAC: 0.134
AAGAGGAT: -0.28
AACCTTAT: -0.0118
ATACGGGC: 0.211
GATCACGC: 0.183

Study 2 — observed: cell-free assay; technique: competition with immobilised ligand; tested at: 1 µM; quantity: remaining binding
Structure (SMILES): CC(=O)C1=C(C)N(c2cccc(C(F)(F)F)c2)C(=O)N[C@@H]1c1ccc(C#N)nc1
WNK1 (Homo sapiens, UniProt Q9H4A3): 89%
NUAK1 (Homo sapiens, UniProt O60285): 93.2%
BRSK2 (Homo sapiens, UniProt Q8IWQ3): 100%
PIK3C2G (Homo sapiens, UniProt O75747): 78.2%

Study 3 — technique: protein-binding microarray; molecule type: double-stranded DNA, one strand shown; medium: in vitro; tested at: not given; direction: higher = stronger binding; quantity: E-score
Target: Hepatocyte nuclear factor 3-beta, forkhead domain (FOXA2, Homo sapiens, UniProt Q9Y261, residues 142-269)
Setting: k-mer, scored over probes, only values ≥0.25
Target sequence (chain): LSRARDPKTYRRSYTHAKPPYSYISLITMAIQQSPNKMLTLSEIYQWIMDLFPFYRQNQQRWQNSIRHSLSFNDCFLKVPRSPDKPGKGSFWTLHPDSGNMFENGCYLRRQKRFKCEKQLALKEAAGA
GTAAATAC: 0.306
AGTAGATA: 0.372
TGTCATAA: 0.281
AGATCAAT: 0.27
ATGTTATC: 0.266
CTATATAC: 0.369
AAATGCAA: 0.264
ACCTAATC: 0.285

Study 4 — observed: enzyme activity; action: inhibitor; tested at: 0.5 µM; relative to: control; quantity: remaining activity
Target: Serine/threonine-protein kinase MRCK beta (CDC42BPB, Homo sapiens, UniProt Q9Y5S2)
Sequence of UniProt Q9Y5S2 (whole entry, looked up): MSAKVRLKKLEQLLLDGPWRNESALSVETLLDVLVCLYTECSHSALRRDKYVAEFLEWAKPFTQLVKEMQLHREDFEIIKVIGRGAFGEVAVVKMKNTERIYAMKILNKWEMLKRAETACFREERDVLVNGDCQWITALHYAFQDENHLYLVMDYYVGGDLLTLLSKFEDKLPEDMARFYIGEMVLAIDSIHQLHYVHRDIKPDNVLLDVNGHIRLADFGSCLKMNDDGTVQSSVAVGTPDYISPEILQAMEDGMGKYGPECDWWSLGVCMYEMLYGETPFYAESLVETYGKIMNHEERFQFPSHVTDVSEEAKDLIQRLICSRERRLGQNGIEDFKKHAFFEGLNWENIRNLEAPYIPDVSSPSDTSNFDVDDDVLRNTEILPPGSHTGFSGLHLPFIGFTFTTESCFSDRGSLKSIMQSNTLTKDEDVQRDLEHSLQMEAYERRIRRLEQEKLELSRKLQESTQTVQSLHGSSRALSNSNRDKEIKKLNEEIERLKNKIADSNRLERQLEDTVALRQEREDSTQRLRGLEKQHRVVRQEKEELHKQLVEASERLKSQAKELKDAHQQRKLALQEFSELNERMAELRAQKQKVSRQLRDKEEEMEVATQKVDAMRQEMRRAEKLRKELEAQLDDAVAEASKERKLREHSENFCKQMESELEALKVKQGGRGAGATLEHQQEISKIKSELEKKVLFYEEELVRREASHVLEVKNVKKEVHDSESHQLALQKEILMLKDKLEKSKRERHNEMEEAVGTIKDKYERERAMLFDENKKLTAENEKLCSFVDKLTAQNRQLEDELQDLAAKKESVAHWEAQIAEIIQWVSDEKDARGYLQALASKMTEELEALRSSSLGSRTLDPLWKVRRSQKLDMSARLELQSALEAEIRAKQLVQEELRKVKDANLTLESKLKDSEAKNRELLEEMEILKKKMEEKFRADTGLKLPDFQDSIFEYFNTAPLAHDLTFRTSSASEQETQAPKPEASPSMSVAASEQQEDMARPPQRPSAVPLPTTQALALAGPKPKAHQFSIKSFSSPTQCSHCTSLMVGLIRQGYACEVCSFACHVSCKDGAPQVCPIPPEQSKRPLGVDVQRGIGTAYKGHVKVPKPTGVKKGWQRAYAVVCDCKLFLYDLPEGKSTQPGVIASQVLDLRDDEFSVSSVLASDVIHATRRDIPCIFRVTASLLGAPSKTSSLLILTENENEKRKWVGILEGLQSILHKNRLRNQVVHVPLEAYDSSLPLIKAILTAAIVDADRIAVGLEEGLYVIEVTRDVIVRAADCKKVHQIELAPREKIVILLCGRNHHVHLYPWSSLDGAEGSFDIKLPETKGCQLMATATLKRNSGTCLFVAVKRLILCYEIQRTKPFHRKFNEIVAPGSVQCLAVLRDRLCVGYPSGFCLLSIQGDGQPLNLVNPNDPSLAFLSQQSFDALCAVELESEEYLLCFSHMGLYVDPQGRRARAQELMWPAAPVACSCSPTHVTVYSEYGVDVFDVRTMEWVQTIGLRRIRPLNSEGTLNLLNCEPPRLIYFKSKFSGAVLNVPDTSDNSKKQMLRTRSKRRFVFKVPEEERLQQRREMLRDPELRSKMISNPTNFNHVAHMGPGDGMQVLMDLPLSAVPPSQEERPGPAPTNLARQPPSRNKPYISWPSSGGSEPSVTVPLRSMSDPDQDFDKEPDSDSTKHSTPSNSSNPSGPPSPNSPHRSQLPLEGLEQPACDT
COc1cc2nccc(Oc3ccc(NC(=S)NC(=O)c4ccccc4C)cc3)c2cc1OC: 90.5%
Nc1[nH]nc2nc3ccccc3nc12: 100%
C#Cc1cccc(Nc2ncnc3cc(OCCOC)c(OCCOC)cc23)c1: 98.5%
O=C(Nc1cccc(Nc2cc(Nc3cccc(C(F)(F)F)c3)ncn2)c1)C1CC1: 97.4%
COc1ccc(C(=O)Nc2sc3c(c2C(N)=O)CCCC3)cc1OC: 94.5%
O=C(CCCc1ccc(-c2ccccc2F)cc1)Nc1ccc(O)cc1: 109%
Nc1ncnc2n[nH]c(Nc3ccc(F)cc3)c12: 106%
CC(C)[C@H](CO)Nc1nc(Nc2cc(N)cc(Cl)c2)c2ncn(C(C)C)c2n1: 98.4%
OCC(O)CCON=C1C(c2c(O)[nH]c3ccccc23)=Nc2ccccc21 (centres unmarked): 96.6%
Oc1ccc(-c2nc(-c3ccncc3)c(-c3ccc(F)cc3)[nH]2)cc1: 103%
Cn1sc(=O)n(Cc2ccccc2)c1=O: 96.4%
CN(C)c1ccc(C=C2C(=O)Nc3ccccc32)cc1: 89.5%
Cc1ccc(Nc2nccc(N(C)c3ccc4c(C)n(C)nc4c3)n2)cc1S(N)(=O)=O: 99.9%
CCOC(=O)c1c(C)[nH]c(/C=C2\C(=O)Nc3ccccc32)c1C: 110%
Cc1nc(-c2ccccc2)c(-c2ccncc2)o1: 101%
O=C(O)c1ccc2c3c1cccc3c(=O)n1c3ccccc3nc21: 109%
CNC(=O)c1cc(Oc2ccc(NC(=O)Nc3ccc(Cl)c(C(F)(F)F)c3)cc2)ccn1: 102%
CO[C@H]1C[C@@H]2CC[C@@H](C)[C@@](O)(O2)C(=O)C(=O)N2CCCC[C@H]2C(=O)O[C@H]([C@H](C)C[C@@H]2CC[C@@H](O)[C@H](OC)C2)CC(=O)[C@H](C)/C=C(\C)[C@@H](O)[C@@H](OC)C(=O)[C@H](C)C[C@H](C)/C=C/C=C/C=C/1C: 103%
COc1ccc(OC)c2c(=S)c3ccccc3[nH]c12: 106%
O=C1NC(=O)C(c2cn(CCCn3ccnc3)c3ccccc23)=C1Nc1ccccc1: 105%
N#CC(C#N)=C(N)/C(C#N)=C/c1ccc(O)cc1: 109%
COc1ccc(CNC(=O)Nc2ncc([N+](=O)[O-])s2)cc1: 93.5%
Cn1c2ccccc2c2c3c(c4c5ccccc5n(CCC#N)c4c21)CNC3=O: 92.1%
Cc1ccc(NC(=O)c2ccc(CN3CCN(C)CC3)cc2)cc1Nc1nc(-c2cccnc2)cs1: 98.1%
COc1cc2ncnc(Nc3ccc(Oc4ccccc4)cc3)c2cc1OC: 106%

Study 5 — technique: protein-binding microarray; molecule type: double-stranded DNA, one strand shown; medium: in vitro; tested at: 250 nM; setting: 60-bp whole probe; added: salmon DNA 0.4 mg/ml; relative to: random background probes; direction: higher = stronger binding; quantity: log fluorescence; shared flanks, not repeated: GCCTAGCAC … GTCTTGATTCGCTTGACGCTGCTG
Target: Interferon regulatory factor 7, full length, phosphomimetic (IRF7, Homo sapiens, UniProt Q92985, residues 1-503, S101K/S471D/S472D/S475D/S476D/S477D/S483D/S484D/S487D)
Construct (chain): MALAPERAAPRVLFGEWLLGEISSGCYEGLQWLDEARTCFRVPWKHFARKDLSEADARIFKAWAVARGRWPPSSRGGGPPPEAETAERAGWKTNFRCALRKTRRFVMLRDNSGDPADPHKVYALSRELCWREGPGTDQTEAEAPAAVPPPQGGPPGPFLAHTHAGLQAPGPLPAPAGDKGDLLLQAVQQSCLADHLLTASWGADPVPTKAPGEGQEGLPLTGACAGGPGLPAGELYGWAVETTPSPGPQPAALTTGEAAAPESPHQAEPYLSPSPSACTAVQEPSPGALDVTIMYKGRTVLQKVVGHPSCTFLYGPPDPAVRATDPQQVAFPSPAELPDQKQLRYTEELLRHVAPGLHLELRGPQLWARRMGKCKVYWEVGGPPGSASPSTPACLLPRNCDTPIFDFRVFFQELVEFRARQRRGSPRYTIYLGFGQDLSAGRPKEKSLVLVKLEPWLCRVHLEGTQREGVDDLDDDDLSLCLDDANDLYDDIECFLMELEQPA
TTAGGTATCGGGTATTGGTTAGTGCTA: 0.695 z-score
CCCTAATTCTGATTGGATAAGTGCTAG: 0.596 z-score
GACGGACTGGGACAGGGGACGTGCTAG: -0.548 z-score
ACCTTTGTTTTTTTCTATATGTGCTAG: 1.43 z-score
GACGGACTGCTTTTCCTGCCGTGCTAG: -0.133 z-score
CTGTTTTTGCTTTCTTTATGGTGCTAG: 3.33 z-score
GACGAACTGGGTATCGGGACGTGCTAG: -0.16 z-score
TCAAGTCCCCTCTTCTGACTGTGCTAG: 0.691 z-score

Repeated from above (study 1):
CTGGTCAC: -0.121
GACGGCGC: 0.356
AAGGTTCT: -0.143
CGATGAAC: 0.134
AAGAGGAT: -0.28
AACCTTAT: -0.0118
ATACGGGC: 0.211
